# Published values of several laboratories.
# Each line is one published result; not all experiments were run side by side.
# ADRB1: Beta-1 adrenergic receptor (ADRB1, Homo sapiens, UniProt P08588)
# Sequence of UniProt P08588 (whole entry, looked up): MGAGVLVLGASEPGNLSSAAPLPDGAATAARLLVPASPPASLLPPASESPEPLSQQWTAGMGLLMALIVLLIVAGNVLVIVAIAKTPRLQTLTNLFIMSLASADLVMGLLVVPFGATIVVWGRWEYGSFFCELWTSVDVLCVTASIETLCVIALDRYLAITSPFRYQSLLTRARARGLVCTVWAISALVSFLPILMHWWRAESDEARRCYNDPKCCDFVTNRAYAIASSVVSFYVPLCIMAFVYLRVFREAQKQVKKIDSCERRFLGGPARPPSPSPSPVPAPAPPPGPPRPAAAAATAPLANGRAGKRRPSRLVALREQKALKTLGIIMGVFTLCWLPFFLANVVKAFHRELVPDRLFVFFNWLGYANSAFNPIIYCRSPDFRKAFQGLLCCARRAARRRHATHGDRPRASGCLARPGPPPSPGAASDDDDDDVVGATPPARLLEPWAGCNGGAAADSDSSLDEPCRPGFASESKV
# Sequence of UniProt P16257 (whole entry, looked up): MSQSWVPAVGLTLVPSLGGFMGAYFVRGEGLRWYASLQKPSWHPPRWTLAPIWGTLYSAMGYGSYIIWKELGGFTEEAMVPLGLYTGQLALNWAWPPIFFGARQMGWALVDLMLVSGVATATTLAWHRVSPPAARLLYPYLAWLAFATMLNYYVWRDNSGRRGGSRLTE
# Sequence of UniProt P28335 (whole entry, looked up): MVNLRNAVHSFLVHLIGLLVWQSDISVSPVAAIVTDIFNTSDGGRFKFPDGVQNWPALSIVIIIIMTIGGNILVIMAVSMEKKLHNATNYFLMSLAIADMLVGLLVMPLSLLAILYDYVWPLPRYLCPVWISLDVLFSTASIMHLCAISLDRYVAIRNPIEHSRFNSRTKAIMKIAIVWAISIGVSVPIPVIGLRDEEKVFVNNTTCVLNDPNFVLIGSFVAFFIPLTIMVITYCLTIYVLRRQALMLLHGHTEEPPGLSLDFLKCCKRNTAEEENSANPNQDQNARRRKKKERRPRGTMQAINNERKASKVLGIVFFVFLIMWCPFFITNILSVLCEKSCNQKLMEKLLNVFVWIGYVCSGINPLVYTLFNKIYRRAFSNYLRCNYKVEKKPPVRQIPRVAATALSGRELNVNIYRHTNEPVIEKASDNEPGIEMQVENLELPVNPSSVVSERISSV
Compound,tested on,test,test system,setting,quantity,result
ClC1=C(Cl)[C@]2(Cl)[C@@H]3[C@@H]4C[C@@H]([C@H]5O[C@@H]45)[C@@H]3[C@@]1(Cl)C2(Cl)Cl,ADRB1,antagonist,,,IC50,≥ 100 µM
OC(O)C(Cl)(Cl)Cl,A-375,,,"100 µM, 18 h",viability,104%
Cc1ncc2c(c1CNCC1(O)CNCCOC1)CCNC2 (centres unmarked),ADRB1,antagonist,,,IC50,≥ 100 µM
Cc1nccc(COC(=O)N2C[C@@H]3[C@@H](CNC(=O)c4ccc5[nH]nnc5c4)[C@@H]3C2)n1,"5-hydroxytryptamine receptor 2C (HTR2C, Homo sapiens, UniProt P28335)","binding, radioligand binding",,10 µM,inhibition,31.1%
NCC(O)c1ccc(O)cc1 (centres unmarked),A-375,,,"100 µM, 18 h",viability,98%
Cn1cncc1[C@](O)(COc1ccc(C#N)cc1-c1ccc(OC(F)(F)F)cc1)c1ccc(C#N)cc1,"Translocator protein (Tspo, Rattus norvegicus, UniProt P16257)","radioligand binding, radioligand displacement",,10 µM,inhibition,-1.86%
CCC1=C[C@@H]2CN3CCc4c([nH]c5ccccc45)[C@@](C(=O)OC)(C2)[C@@H]13,A-375,,,"100 µM, 18 h",viability,80%
CNC(=O)c1ccc(-c2cnn3ccc(C(=O)N(C)c4ccc(Cl)c(C(=O)OC)c4)cc23)cc1,Cryptosporidium parvum,"time-kill, one-phase decay fit",nanoluciferase-expressing,20 µM,half-life of parasite killing,16.1 h

# Repeated from above:
Compound,tested on,test,test system,setting,quantity,result
CCC1=C[C@@H]2CN3CCc4c([nH]c5ccccc45)[C@@](C(=O)OC)(C2)[C@@H]13,A-375,,,"100 µM, 18 h",viability,80%
